Measurements from different studies.
Numbered parts are unrelated; each lists some results of a single study.

Sample 1
Target: RING finger protein unkempt homolog, zinc fingers 1-6, GST-SBP tag (UNK, Homo sapiens, UniProt Q9C0B0, residues 30-357)
Chain of UniProt Q9C0B0 (30-357, looked up): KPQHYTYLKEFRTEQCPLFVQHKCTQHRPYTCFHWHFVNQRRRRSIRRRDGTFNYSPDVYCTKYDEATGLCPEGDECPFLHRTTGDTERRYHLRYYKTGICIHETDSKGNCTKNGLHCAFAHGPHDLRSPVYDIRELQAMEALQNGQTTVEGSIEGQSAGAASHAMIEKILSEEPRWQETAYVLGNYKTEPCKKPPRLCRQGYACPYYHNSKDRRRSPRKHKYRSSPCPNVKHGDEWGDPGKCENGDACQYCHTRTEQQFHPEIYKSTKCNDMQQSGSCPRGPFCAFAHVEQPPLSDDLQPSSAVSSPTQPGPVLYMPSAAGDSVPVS
Method: RNA Bind-n-Seq
Molecule type: RNA
Medium: in vitro
Concentration: not given
Setting: RNA with constant flanks, human and mouse sites, ends assumed
Relative to: input RNA pool
Reading: higher = stronger binding
For `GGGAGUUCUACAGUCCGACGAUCCCUACAAUAAUGAAAACCUACAGGAAUUUUUUUAUUUUUCAUUUUCUUCUUAGGCAUAGUUAGUCUUUUUCCCCCAGGCAGAUGAUUCUGAGUGUGGGAGUGUGUCUGCACAUGUUAAAACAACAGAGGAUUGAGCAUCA`, the bound/input enrichment was 2.66 ratio.
`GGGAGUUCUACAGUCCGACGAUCAGGAAAGCUUACAAAUAUGCUUAUGAUCAAUACAGGGACCAAUACAACUGGUUCUUCCUUGCACGCCCCACUACUUUCGCUGUUAUUGAAAACCUCAAAUAUUUUUUGUUAAAAAAGGAUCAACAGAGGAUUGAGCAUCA` has a bound/input enrichment of 0.224 ratio.
For `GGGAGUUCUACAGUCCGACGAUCAAACUGAUCCGCUAUGUCACAGCCUUUGAUUUCUUCCUGGCAGCCUGUGAGAUCAUCUUUUGUUUCUUUAUCAUUUACUAUGUGGUGGAAGAGAUAUUGGAAAUUCGGAUUCACAGACUGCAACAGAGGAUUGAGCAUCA`, the bound/input enrichment was 0.182 ratio.
`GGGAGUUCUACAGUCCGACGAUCAUAGAAGGACCUAUAAUUAAGUUAAUGAUUCUUCCAGACCCAGAAAAACCCGUUCGUCUCAAUGUUAAAUAUGACAAAGAUGCAUCCUUCUUAGCAGGGGGUCUUUUCACUGAUUUUAUGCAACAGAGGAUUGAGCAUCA` gave a bound/input enrichment of 0.124 ratio.
`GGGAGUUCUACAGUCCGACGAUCGACGCUAGUGAUGGGACAGUACGACUUCGUGGACUACCAUUUGGUUGCAGCAAAGAGGAAAUAGUUCAGUUCUUUCAAGGGUUGGAAAUCGUGCCAAAUGGGAUAACAUUGACGAUGGACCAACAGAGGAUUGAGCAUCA` gave a bound/input enrichment of 0.261 ratio.
`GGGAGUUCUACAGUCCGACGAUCAAAGACAAAGAUGAACUUCGAGCUCAGAGAAGAAGGGAAAGGCCAAAGACACCACCUAGUAAUCUCUCUCCCAUUGAAGAUGCAUCUCCGACAGAAGAGUUACGUCAGGCUGCAGAAAUGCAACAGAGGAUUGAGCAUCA` has a bound/input enrichment of 0.2 ratio.
For `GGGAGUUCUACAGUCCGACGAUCGGCACCUUCUUCCCCAUGGGGGAUGAGGGUGCCAGCAGCCAGAUCGGCCGGGCUGCGGGCACAGGCUUCACCGUCAACGUGGCAUGGAACGGGCCCCGCAUGGGUGAUGCUGACUACCUACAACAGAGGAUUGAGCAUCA`, the bound/input enrichment was 0.155 ratio.
`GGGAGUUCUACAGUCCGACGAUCCUUAUGUAUCUACUAGCAUAUCCACAAAAGCCCAUGGUUAAAACAAAAACAAUCGAGUUGAUAGAUUUUGAGAAGUUGCCGGCUGGCCAGAACGCAACUGUUGCCGUGAUGAGCUACAGCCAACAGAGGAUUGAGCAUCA` gave a bound/input enrichment of 0.658 ratio.

Sample 2
Target: Prothrombin, mature alpha-thrombin (F2, Homo sapiens, UniProt P00734)
Method: aptamer microarray, sandwich
Molecule type: DNA with 2'F-ANA
Medium: in vitro
Concentration: 200 nM
Setting: whole 15-mer aptamer, many near background
With: Cy3 exosite-II aptamer, 400 nM
Reading: higher = stronger binding
Strand: GGTTGGTGTGGTTGG
Under “mean fluorescence intensity”, `2'F-ANA at 1 6 8 9 11 12 13 15` is recorded as 231 a.u.
Under “mean fluorescence intensity”, `2'F-ANA at 2 3 7 10 11 14` is recorded as 292 a.u.
`2'F-ANA at 1 3 4 5 8 11 13 15`: “mean fluorescence intensity” 77.3 a.u.
`2'F-ANA at 1 2 4 5 8 11 12 13 14`: “mean fluorescence intensity” 46.2 a.u.
For `2'F-ANA at 3 7 9 10 11 12 13 15`, “mean fluorescence intensity” read 545 a.u.
`2'F-ANA at 1 2 3 7 10 12 13 15` — result for “mean fluorescence intensity”: 90.3 a.u.
For `2'F-ANA at 3 6 7 8 9 10 11 14`, “mean fluorescence intensity” read 432 a.u.

Sample 3
Target: Interferon regulatory factor 3, full length, phosphomimetic (IRF3, Homo sapiens, UniProt Q14653, residues 1-427, S386D/S396D/S398D/S402D/T404D/S405D)
Chain of UniProt Q14653 (whole entry, unmodified, looked up): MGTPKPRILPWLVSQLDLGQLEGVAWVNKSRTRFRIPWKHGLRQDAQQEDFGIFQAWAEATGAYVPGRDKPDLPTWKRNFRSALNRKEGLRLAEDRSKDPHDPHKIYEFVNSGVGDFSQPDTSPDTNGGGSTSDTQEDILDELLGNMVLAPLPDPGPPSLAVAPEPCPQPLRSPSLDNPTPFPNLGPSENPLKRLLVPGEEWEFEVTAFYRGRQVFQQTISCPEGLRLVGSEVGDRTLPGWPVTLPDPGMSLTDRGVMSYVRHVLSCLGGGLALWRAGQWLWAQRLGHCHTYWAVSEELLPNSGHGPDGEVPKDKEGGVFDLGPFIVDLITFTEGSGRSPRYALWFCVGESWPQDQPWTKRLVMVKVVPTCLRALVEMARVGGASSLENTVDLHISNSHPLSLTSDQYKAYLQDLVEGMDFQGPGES
Method: protein-binding microarray
Molecule type: double-stranded DNA, one strand shown
Medium: in vitro
Concentration: 2540 nM top
Setting: 60-bp whole probe
With: salmon DNA 0.4 mg/ml
Relative to: random background probes
Reading: higher = stronger binding
All sequences stand within: GCCTAGCAC … GTCTTGATTCGCTTGACGCTGCTG
Under “fitted relative affinity”, `TTAGGTTTCGGTTTTCGGTTAGTGCTA` is recorded as 9.74 z-score.
For `AAACAAGTTTCACGTCTTATAGTGCTA`, “fitted relative affinity” read 1.68 z-score.
`GAACATTTCCTTTACATTCCGTGCTAG`: “fitted relative affinity” 2.84 z-score.
`TTATGTATCGACTTTCGGTTAGTGCTA`: “fitted relative affinity” 2.21 z-score.
`GAAGGTCTCCTTCTCCTGACGTGCTAG` — result for “fitted relative affinity”: 3.79 z-score.
`TTAGATTGCGGGTATCGATTAGTGCTA` — result for “fitted relative affinity”: 0.211 z-score.
Under “fitted relative affinity”, `TTAGAACTGGGGGTTCGATTAGTGCTA` is recorded as -0.214 z-score.
Under “fitted relative affinity”, `GACGGTATCTGGACTGGGGACGTGCTA` is recorded as 0.437 z-score.

Further values, each from its own experiment
For `PhoQ, residues 284 288 289 292 302 303 TNSAEL`, the fold induction was 10.3 (PhoP, residues 12 14 15 18 19 QYFSL (Escherichia coli, UniProt P23836); Sort-seq, refers to: YFP reporter; E. coli; PhoQ-PhoP variant library, with: 10 µM Mg2+; relative to: high Mg2+ state, higher = stronger signaling).

Excerpt of the above (sample 1):
For `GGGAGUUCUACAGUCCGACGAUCGGCACCUUCUUCCCCAUGGGGGAUGAGGGUGCCAGCAGCCAGAUCGGCCGGGCUGCGGGCACAGGCUUCACCGUCAACGUGGCAUGGAACGGGCCCCGCAUGGGUGAUGCUGACUACCUACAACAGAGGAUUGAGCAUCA`, the bound/input enrichment was 0.155 ratio.
`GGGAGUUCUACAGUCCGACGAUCAGGAAAGCUUACAAAUAUGCUUAUGAUCAAUACAGGGACCAAUACAACUGGUUCUUCCUUGCACGCCCCACUACUUUCGCUGUUAUUGAAAACCUCAAAUAUUUUUUGUUAAAAAAGGAUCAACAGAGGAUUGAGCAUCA` has a bound/input enrichment of 0.224 ratio.
For `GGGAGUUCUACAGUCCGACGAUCAAACUGAUCCGCUAUGUCACAGCCUUUGAUUUCUUCCUGGCAGCCUGUGAGAUCAUCUUUUGUUUCUUUAUCAUUUACUAUGUGGUGGAAGAGAUAUUGGAAAUUCGGAUUCACAGACUGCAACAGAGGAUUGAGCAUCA`, the bound/input enrichment was 0.182 ratio.
`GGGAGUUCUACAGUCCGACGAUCAAAGACAAAGAUGAACUUCGAGCUCAGAGAAGAAGGGAAAGGCCAAAGACACCACCUAGUAAUCUCUCUCCCAUUGAAGAUGCAUCUCCGACAGAAGAGUUACGUCAGGCUGCAGAAAUGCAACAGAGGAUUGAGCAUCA` has a bound/input enrichment of 0.2 ratio.
